Assay results pooled from the literature.
Each numbered part is a random draw from the data of one study; scales do not carry over between parts.

Block 1
Target: Replicase polyprotein 1ab, nsp13 helicase (rep, Severe acute respiratory syndrome coronavirus 2, UniProt P0DTD1)
Mode: inhibitor
Tested at: 20 µM
| SMILES | inhibition |
| --- | --- |
| CN[C@H](CC(C)C)C(=O)N[C@H]1C(=O)N[C@@H](CC(N)=O)C(=O)N[C@H]2C(=O)N[C@H]3C(=O)N[C@H](C(=O)N[C@H](C(=O)O)c4cc(O)cc(O)c4-c4cc3ccc4O)[C@H](O)c3ccc(c(Cl)c3)Oc3cc2cc(c3O[C@@H]2O[C@H](CO)[C@@H](O)[C@H](O)[C@H]2O[C@H]2C[C@](C)(N)[C@H](O)[C@H](C)O2)Oc2ccc(cc2Cl)[C@H]1O | 17.2% |
| Oc1cc2c(cc1O)C(c1ccccc1)CNCC2 (stereo not shown) | 5.71% |
| N#C/C(=C\c1cn(-c2ccccc2)c2ccccc12)C(=O)O | -0.11% |
| Oc1ccc2c3c1O[C@H]1c4[nH]c5c(c4C[C@@]4(O)[C@@H](C2)N(CC2CC2)CC[C@]314)C[C@@]1(O)[C@H]2Cc3ccc(O)c4c3[C@@]1(CCN2CC1CC1)[C@H]5O4 | 16.2% |
| O=C(c1ccc(/C=C/c2n[nH]c3ccccc23)cc1)N1CCNCC1 | 2.84% |
| CC(C)(O)C(=O)N1CCN(c2ccc(C(F)(F)F)c(C3=C(c4c[nH]c5ccccc45)C(=O)NC3=O)c2)CC1 | -1.06% |
| CC(=O)OC[C@H](N)C(=O)O | -17.3% |

Block 2
Target: Sox, HMG box (Pigoraptor chileana)
Technique: Spec-seq
Form: double-stranded DNA, one strand shown
Sample: in vitro
Tested at: not given
Notes: whole probe, mean of replicates
Baseline: not given
Direction: lower = stronger binding
Constant ends, left off below: GAGTCGTCTCGTCAGCAC … CCGTAGAGCACTCAGGTC
Residues (chain): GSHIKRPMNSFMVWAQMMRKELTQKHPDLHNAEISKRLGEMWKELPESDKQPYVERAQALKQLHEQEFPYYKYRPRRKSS
| Sequence | relative binding energy [ln ratio] |
| --- | --- |
| CATGCGG | 0.598 |
| CATGAAC | 0.178 |
| GCGAGTT | 1.49 |
| CAGGGTT | 1.28 |
| CATTCTA | -0.523 |
| CATCCCT | 0.655 |

Single results of other studies
| Molecule | target or system | assay | system | setting | how to read | quantity | value |
| --- | --- | --- | --- | --- | --- | --- | --- |
| CS(=O)(=O)OCCCCOS(C)(=O)=O | HEK-293T | pseudovirus infection, FDA-approved drug library screen | VSV pseudotyped with SARS-CoV-2 spike | 10 µM, 16 h | baseline: vehicle-treated | GFP-positive cells | 77.3% |
| CN(C)CCCCC(=O)Nc1ccc(NC(=S)NC(=O)c2ccc(C(C)(C)C)cc2)cc1 | Replicase polyprotein 1ab, main protease (rep, Severe acute respiratory syndrome coronavirus 2, UniProt P0DTD1) | enzyme activity, inhibitor |  | 20 µM, hit confirmation |  | inhibition | 10.5% |
| bleomycin sulfate | HEK-293T/ACE2 |  |  | concentration not given | baseline: vehicle | nuclei number | 93.8% |

Repeated from above (block 2):
| Sequence | relative binding energy [ln ratio] |
| --- | --- |
| CATGCGG | 0.598 |
